Experimental data gathered from unrelated publications.
Each numbered part is a random draw from the data of one study; scales do not carry over between parts.

Block 1
Target: Protein C-ets-1 (ETS1, Homo sapiens, UniProt P14921, residues 1-441, full length assumed)
Sequence of UniProt P14921 (whole entry, looked up): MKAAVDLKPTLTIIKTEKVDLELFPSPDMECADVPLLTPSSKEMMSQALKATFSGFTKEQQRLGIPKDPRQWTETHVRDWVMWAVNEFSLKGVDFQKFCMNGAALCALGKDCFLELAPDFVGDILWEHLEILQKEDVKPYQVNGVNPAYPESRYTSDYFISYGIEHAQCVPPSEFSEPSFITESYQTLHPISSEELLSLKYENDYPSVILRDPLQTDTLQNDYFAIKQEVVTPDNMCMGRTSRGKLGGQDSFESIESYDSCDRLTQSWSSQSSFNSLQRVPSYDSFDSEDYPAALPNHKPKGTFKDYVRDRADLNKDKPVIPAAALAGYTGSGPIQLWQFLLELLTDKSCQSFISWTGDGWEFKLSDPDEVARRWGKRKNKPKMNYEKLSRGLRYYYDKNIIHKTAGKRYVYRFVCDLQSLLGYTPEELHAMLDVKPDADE
Method: protein-binding microarray
Form: double-stranded DNA, one strand shown
Medium: in vitro
Tested at: not given
Notes: k-mer, scored over probes, only values ≥0.25
Reading: higher = stronger binding
| Oligonucleotide | E-score |
| --- | --- |
| CGGAGGTA | 0.272 |
| ATCCCCGG | 0.286 |
| ACAGGACA | 0.353 |
| TAGCGGAA | 0.448 |
| AGGAAGCA | 0.44 |
| AAACCGGA | 0.447 |
| TCCGTCCA | 0.327 |

Block 2
Target: Histone acetyltransferase KAT6A, winged helix 1, GST fusion (KAT6A, Homo sapiens, UniProt Q92794, residues 1-85)
Method: protein binding microarray
Form: double-stranded DNA, one strand shown
Medium: in vitro
Tested at: not given
Notes: 8-mer, flanks averaged, mean of 2 arrays, mostly near background
Baseline: not given
Reading: higher = stronger binding
Residues (chain): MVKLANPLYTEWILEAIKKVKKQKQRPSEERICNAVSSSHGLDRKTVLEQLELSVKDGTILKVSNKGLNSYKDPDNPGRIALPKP
| Oligonucleotide | E-score |
| --- | --- |
| ACTTATCG | -0.00215 |
| ACCTCAGC | -0.0316 |
| GTCGACCA | 0.0549 |
| AATCCCAG | -0.257 |
| ACGTTTGG | -0.062 |

Block 3
Target: Ras GTPase-activating protein-binding protein 1, RRM domain (G3BP1, Homo sapiens, UniProt Q13283)
Sequence of UniProt Q13283 (whole entry, looked up): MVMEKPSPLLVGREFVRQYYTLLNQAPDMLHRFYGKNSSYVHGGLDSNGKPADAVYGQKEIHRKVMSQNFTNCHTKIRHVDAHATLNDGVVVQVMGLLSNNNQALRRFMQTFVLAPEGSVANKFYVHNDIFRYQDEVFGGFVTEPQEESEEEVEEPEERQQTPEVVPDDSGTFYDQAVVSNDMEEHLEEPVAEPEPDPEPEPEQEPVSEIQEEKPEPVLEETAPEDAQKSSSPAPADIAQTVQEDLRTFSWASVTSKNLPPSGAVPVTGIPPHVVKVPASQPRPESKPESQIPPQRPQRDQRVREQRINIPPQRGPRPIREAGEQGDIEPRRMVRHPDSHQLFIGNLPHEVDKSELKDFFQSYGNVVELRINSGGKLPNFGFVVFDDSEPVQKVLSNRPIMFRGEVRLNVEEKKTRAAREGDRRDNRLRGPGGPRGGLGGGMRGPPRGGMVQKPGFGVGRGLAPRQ
Method: RNA Bind-n-Seq
Form: RNA
Medium: in vitro
Tested at: 1 µM
Notes: whole 134-nt RNA, ends assumed
With: 150 mM KCl
Baseline: input library
Reading: higher = stronger binding
All sequences stand within: GGGAGUUCUACAGUCCGACGAUC … UGGAAUUCUCGGGUGUCAAGG
| Oligonucleotide | log2 enrichment |
| --- | --- |
| UUGUGGAAAACCCACAUGCUCCUCAGAAAGAUGAUGCCCUGGUGAUCACACACUACAACCGGACCCGACAGCAGGAAGAGAUGCUGGGGC | -0.0214 |
| CUCAAGUCCUGUGCUACACAUCGUAUGUACCGAAUCGGUUUUUGGUUUGGAGGAAAGUAUUAUGUUACGCCGUUCGGAUCUGCACUUCCA | -0.211 |
| CUCAAGUCCUGUGCUACACAUCGUAUGUACCGAAUCGGGAAGGGGAAGGGAAGGAAAGUAUUAUGUUACGCCGUUCGGAUCUGCACUUCC | -0.221 |
| UGCGAUAUGAACGUUCACAAGCAAUGCGUCAUCAAUGUCCCCAGCCUCUGCGGAAUGGAUCACACUGAGAAGAGGGGGCGGAUUUACCUA | -0.177 |
| GCAGGAAGUAAAAACAAAUGGAAAUGCUGCGGAUAGUGGCAGGGGUGGGGGUUGCUAAGGAAAGGGUGGGAUGGGAGUGGGUAAAGAGUU | 0.983 |
| UGGGAGGUGGAUUUUCUUUAUUUUUUUAGCUCAUUUCCAGGGGUGGGAAUUUUUUUUUAAUAUGUGUCAUGAAUAAAGUUGUUUUUGAAA | 1.71 |

Single results of other studies
| Substance | target | test | system | conditions | scale | endpoint | result |
| --- | --- | --- | --- | --- | --- | --- | --- |
| PhoQ, residues 284 288 289 292 302 303 SIHMAM | PhoP, residues 12 14 15 18 19 LHTVM (Escherichia coli, UniProt P23836) | Sort-seq, refers to: YFP reporter | E. coli | PhoQ-PhoP variant library, with: 10 µM Mg2+ | baseline: high Mg2+ state, higher = stronger signaling | fold induction | 7.97 |

Excerpt of the above (block 3):
| Oligonucleotide | log2 enrichment |
| --- | --- |
| GCAGGAAGUAAAAACAAAUGGAAAUGCUGCGGAUAGUGGCAGGGGUGGGGGUUGCUAAGGAAAGGGUGGGAUGGGAGUGGGUAAAGAGUU | 0.983 |
